Results gathered from unrelated publications.
A part holds a random share of what one study measured.

Study 1 — technique: RNA Bind-n-Seq; molecule type: RNA; sample: in vitro; concentration: 365 nM; baseline: no-protein control; direction: higher = stronger binding
Target: RNA binding protein fox-1 homolog 2, RRM domain, GST-SBP tag (RBFOX2, Homo sapiens, UniProt O43251-10, residues 100-194)
Setting: natural RNA segment, single round, ends assumed
| Sequence | RBNS enrichment (R) |
| --- | --- |
| GGGAGUUCUACAGUCCGACGAUCAAUACAGCAGGCAAAGGACUGAGUGAAGCUGGCCACACCACACGUUUAUACGGAUUUCGGAUUUCUACCCACGUUUCCUCACUCUGUUUUCUAUAUAUUCUAUAUAAAUAUGGAAUUCUCGGGUGCCAA | 0.752 |
| GGGAGUUCUACAGUCCGACGAUCGAGAAUGGAGGGGAACCAGGCGUCCUUGGAGGCAGCUUGGGAGGGUGACUGUGUAGUGUCACCCACAAGGGAGGCUAGGGCAAUGGAGCAGGCCACCAGCAGCAGCUGUGUGGAAUUCUCGGGUGCCAA | 0.828 |
| GGGAGUUCUACAGUCCGACGAUCGUAAUUCCCACCCCUCUUGCUUCUUCCCCACCUCACCAUCUCCCAGACCCUCUUCCCUUUGCCCUUCUCCUCCAAUACAUAAAGGACACAGACAAGGAACUUGCUGAAAGUGGAAUUCUCGGGUGCCAA | 0.555 |

Study 2 — technique: universal PBM; molecule type: double-stranded DNA, one strand shown; sample: in vitro; concentration: not given; direction: higher = stronger binding
Target: Sal-like protein 4, full length isoform B (SALL4, Homo sapiens, UniProt Q9UJQ4-2, residues 1-616)
Setting: 8-mer, flanks averaged, mean of replicates
Residues (chain): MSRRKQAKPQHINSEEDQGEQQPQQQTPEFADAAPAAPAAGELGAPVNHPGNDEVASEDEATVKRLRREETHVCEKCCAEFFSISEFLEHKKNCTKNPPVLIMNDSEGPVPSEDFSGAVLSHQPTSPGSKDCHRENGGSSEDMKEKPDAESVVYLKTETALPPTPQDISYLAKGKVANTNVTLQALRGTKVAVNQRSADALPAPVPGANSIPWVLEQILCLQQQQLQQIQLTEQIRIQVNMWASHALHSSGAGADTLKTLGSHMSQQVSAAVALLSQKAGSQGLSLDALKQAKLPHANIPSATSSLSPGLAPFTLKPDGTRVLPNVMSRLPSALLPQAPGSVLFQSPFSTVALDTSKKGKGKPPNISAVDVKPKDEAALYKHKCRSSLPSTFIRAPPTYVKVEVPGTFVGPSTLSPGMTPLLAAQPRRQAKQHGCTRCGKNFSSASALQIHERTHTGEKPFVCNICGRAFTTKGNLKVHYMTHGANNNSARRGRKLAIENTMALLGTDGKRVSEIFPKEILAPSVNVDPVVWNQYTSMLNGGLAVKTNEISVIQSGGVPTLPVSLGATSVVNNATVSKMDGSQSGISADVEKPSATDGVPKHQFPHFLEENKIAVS
| Sequence | E-score |
| --- | --- |
| CCCGAGCG | -0.303 |
| GACTCTAA | 0.0218 |
| ATAGAGGA | 0.0856 |
| CAAATCGA | 0.109 |
| GATGCAGC | -0.149 |

Mixed results
PHO4 full length, GST-tagged: Phosphate system positive regulatory protein PHO4, full length, GST-tagged (PHO4, Saccharomyces cerevisiae, UniProt P07270, residues 1-312)
Chain of UniProt P07270 (whole entry, looked up): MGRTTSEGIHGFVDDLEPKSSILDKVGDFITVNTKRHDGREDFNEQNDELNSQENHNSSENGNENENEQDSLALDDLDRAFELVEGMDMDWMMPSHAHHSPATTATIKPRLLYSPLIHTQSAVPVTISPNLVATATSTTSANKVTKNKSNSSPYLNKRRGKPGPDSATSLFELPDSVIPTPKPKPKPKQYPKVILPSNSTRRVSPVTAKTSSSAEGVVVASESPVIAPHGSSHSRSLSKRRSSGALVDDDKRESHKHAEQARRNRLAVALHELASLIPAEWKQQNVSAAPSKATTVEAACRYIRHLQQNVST
| Substance | target | assay | test system | setting | scale | measurement | result |
| --- | --- | --- | --- | --- | --- | --- | --- |
| TTCATTGTAGATAGTACCGTGATGGCCTTCGGCAGGGTCTTGATTCGCTTGACGCTGCTG | PHO4 full length, GST-tagged | competition protein-binding microarray | double-stranded DNA, one strand shown, in vitro | 2 µM, whole 60-bp probe, lowest competitor level, with: Cbf1 competitor, 0.05 µM | higher = stronger binding | fluorescence intensity | 4960 a.u. |
| PhoQ, residues 284 288 289 292 302 303 MLMVEA | PhoP, residues 12 14 15 18 19 TTLRV (Escherichia coli, UniProt P23836) | Sort-seq, refers to: YFP reporter | E. coli | PhoQ-PhoP variant library, with: 10 µM Mg2+ | baseline: high Mg2+ state, higher = stronger signaling | fold induction | 12.2 |
| CTAACGAAGGTTTGAAGAGTGGGTGACAAGCCAAGTGTCTTGATTCGCTTGACGCTGCTG | PHO4 full length, GST-tagged | competition protein-binding microarray | double-stranded DNA, one strand shown, in vitro | 2 µM, whole 60-bp probe, lowest competitor level, with: Cbf1 competitor, 0.05 µM | higher = stronger binding | fluorescence intensity | 3630 a.u. |

A few entries again (study 1):
| Sequence | RBNS enrichment (R) |
| --- | --- |
| GGGAGUUCUACAGUCCGACGAUCGAGAAUGGAGGGGAACCAGGCGUCCUUGGAGGCAGCUUGGGAGGGUGACUGUGUAGUGUCACCCACAAGGGAGGCUAGGGCAAUGGAGCAGGCCACCAGCAGCAGCUGUGUGGAAUUCUCGGGUGCCAA | 0.828 |
